Measurements pooled from the literature.
Lines come from different studies, so protocols differ. Several values in a cell are separate wells, animals, samples, runs or records. ± marks the error that the study gave.
Chain of UniProt P05177 (whole entry, looked up): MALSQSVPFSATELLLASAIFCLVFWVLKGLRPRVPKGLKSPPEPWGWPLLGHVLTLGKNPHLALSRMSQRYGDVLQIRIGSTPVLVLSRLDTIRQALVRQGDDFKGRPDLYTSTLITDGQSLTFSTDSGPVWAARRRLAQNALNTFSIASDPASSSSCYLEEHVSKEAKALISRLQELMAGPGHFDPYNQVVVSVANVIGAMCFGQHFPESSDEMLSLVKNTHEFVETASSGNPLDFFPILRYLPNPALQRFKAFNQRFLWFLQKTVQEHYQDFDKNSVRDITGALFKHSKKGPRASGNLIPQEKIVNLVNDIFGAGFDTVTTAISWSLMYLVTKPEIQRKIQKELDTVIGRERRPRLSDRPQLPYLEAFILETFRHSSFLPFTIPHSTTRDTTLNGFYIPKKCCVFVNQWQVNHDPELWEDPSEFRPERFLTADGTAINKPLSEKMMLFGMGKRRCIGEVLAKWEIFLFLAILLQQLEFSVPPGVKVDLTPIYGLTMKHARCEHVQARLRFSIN
Chain of UniProt P05181 (whole entry, looked up): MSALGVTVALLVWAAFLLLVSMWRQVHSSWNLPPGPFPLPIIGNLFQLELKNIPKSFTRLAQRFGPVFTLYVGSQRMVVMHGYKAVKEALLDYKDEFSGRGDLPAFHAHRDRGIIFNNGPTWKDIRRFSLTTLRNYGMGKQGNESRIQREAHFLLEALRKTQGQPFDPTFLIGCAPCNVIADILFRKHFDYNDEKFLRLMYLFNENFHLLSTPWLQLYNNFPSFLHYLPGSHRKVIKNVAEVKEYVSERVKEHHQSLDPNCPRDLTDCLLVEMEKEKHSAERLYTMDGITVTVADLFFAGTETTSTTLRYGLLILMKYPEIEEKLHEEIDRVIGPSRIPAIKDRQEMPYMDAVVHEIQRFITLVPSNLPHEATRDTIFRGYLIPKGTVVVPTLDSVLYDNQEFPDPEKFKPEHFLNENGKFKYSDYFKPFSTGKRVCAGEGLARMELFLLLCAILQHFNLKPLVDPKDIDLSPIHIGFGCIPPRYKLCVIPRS

SMILES	target or system	test	system	setting	how to read	measurement	result
COCC1CN(C2CCN(c3cc(OC)c(Nc4ncc(Br)c(Nc5ccc6c(c5P(C)(C)=O)OCCO6)n4)cc3C)CC2)C1			EGFR-mutant NSCLC patients, plasma	oral, 30 mg single dose, geometric mean		AUC(0-inf)	4710 ng·h/mL
CCN(CC)CC#CCNc1ccnc2cc(Cl)ccc12	Salmonella typhimurium	mini-Ames test	TA98	1000.0 µg/well, without S9		revertants	5 revertants/well and 1 revertants/well
CN1CCCNC(=O)c2cccc(c2)C(=O)NCCCN(C)CCCNc2cccc3c2C(=O)c2cccc(c2C3=O)NCCC1	Ca9-22	CCK-8		1.5 µM, 48 h	reference: untreated	viability	23.2%
O=C(Nc1cnccc1-c1ccc([18F])nc1)c1ccnc(NC(=O)C2CC2)c1		PET imaging	FVB/NJ mice, both sexes, liver	intravenous, 10 min post-injection, P-gp inhibited, together with: tariquidar 15 mg/kg iv, 2 h before		SUV	7.99
COC(=O)c1ccc(CN2CCCC(CCC(=O)NCc3ccc(C)o3)C2)cc1 (centres unmarked)	Trypanosoma cruzi	reporter mRNA translation, inhibitor, refers to: capped polyadenylated Renilla luciferase mRNA	cell-free extract	concentration not given	reference: positive over negative control	translation activity	108% and 106% and 93.2% and 111%
CCCC[C@H](NC(C)=O)C(=O)N[C@@H](CO)C(=O)N[C@H](C(=O)N1CCC[C@H]1C(=O)N[C@]1(C)CCCCCCC=CCCC[C@@](C)(C(=O)N[C@@H](Cc2ccccc2)C(=O)N[C@@H](CCCCN)C(=O)N[C@@H](CCCNC(=N)N)C(=O)N[C@@H](CC(C)C)C(=O)N[C@@H](CCC(N)=O)C(N)=O)NC(=O)[C@H](CCCNC(=N)N)NC(=O)[C@H](CCCC)NC(=O)[C@H](CC(C)C)NC(=O)[C@H](CCCNC(=N)N)NC(=O)[C@H](CCCNC(=N)N)NC(=O)[C@H](CCCNC(=N)N)NC1=O)[C@@H](C)O	proteinase K	LC-MS		25 µM, 492.1 min, pH 7.4		remaining peptide	42.6% and 43.2%
N#C[C@@H]1CC(F)(F)CN1C(=O)CNC(=O)c1ccnc2c(NC(=O)CCOCCOCCOCCOCCOCCOCCNC(=O)[C@H](CCCCNC(=O)CN3CCN(CC(=O)[O-])CCN(CC(=O)[O-])CCN(CC(=O)[O-])CC3)NC(=O)CCCc3ccc(I)cc3)cccc12.[177Lu+3]	U-87 MG tumour model		host not given, blood	24 h, tumour-bearing		tracer uptake	0.15 %ID/g
C=CC(=O)Nc1cc(Nc2nccc(-c3cn(C)c4ccccc34)n2)c(OCC(F)(F)F)nc1N(C)CCN(C)C	Cytochrome P450 2E1 (CYP2E1, Homo sapiens, UniProt P05181)	substrate, substrate depletion		3 µM, 60 min, normalised to liver abundance		contribution to metabolism	2.25%
CC(C)C[C@H](NC(=O)[C@H](Cc1ccc(O)cc1)NC(=O)[C@@H](CCCNC(=N)N)NC(=O)[C@@H](CO)NC(=O)[C@H](Cc1ccccc1)NC(=O)[C@H](CC1CCCCC1)NC(=O)[C@H](CC(=O)O)NC(=O)CN1CCN(CC(=O)O)CCN(CC(=O)O)CCN(CC(=O)O)CC1)C(=O)N[C@@H](Cc1c[nH]c2ccccc12)C(=O)N[C@@H](CO)C(=O)O [copper-64 labelled]			human, brain	concentration not given, 3 h		activity concentration	90.7 Bq/mL and 132 Bq/mL and 151 Bq/mL and 108 Bq/mL and 69.4 Bq/mL and 72.8 Bq/mL
N#C[C@@H]1CC(F)(F)CN1C(=O)CNC(=O)c1ccnc2c(NC(=O)[C@@H](N)CCCCNC(=O)CCOCCOCCOCCOCCOCCOCCNC(=O)CN3CCN(CC(=O)[O-])CCN(CC(=O)[O-])CCN(CC(=O)[O-])CC3)cccc12.[177Lu+3]	U-87 MG tumour model		host not given, tumour	24 h, tumour-bearing		tracer uptake	0.67 %ID/g
CC(C)(O)c1ncc([S@](N)(=O)=NC(=O)Nc2c3c(cc4c2CCC4)CCC3)s1			healthy human	oral, 30 mg single dose, capsule formulation		total adverse events	83%
CC(C)OCCOCc1ccc(OCC(O)CN(N=O)C(C)C)cc1 (centres unmarked)	Salmonella typhimurium	Ames test	TA1535	15.8 µg/plate, 30 % rat S9	reference: solvent control	revertant fold increase	0.9 fold
COc1ccc2c(c1)C(C)(C)C(/C=C/C1=C(Oc3ccc(C(=O)NCCCCOc4cc(CN(Cc5ccccn5)Cc5ccccn5)cc(CN(Cc5ccccn5)Cc5ccccn5)c4)cc3)C(=C/C=C3/N(CCCCS(=O)(=O)[O-])c4ccc(OC)cc4C3(C)C)CCC1)=[N+]2CCCCS(=O)(=O)[O-].O=[N+]([O-])[O-].O=[N+]([O-])[O-].[99Tc+].[C-]#[O+].[C-]#[O+].[C-]#[O+].[Zn+2]	Staphylococcus aureus		BALB/c mice, bacterial myositis, urine and bladder	12 h		tissue uptake	1.59 %ID/g
CNC(=O)C1CCCN(C(=O)C2CC3CCC2N3C(=O)[C@@H]2C[C@@H](O)CN2C(=O)NCc2cccc(Cl)c2F)C1 (mixture of isomers)	Cytochrome P450 1A2 (CYP1A2, Homo sapiens, UniProt P05177)	preincubation without NADPH	human	50 µM	reference: negative control	remaining activity	99.2% and 98.3%
O=C(CNc1ccc2ccccc2c1)N/N=C/c1ccc([N+](=O)[O-])o1	Trypanosoma cruzi	reporter mRNA translation, inhibitor, refers to: capped polyadenylated Renilla luciferase mRNA	cell-free extract	concentration not given	reference: positive over negative control	translation activity	103% and 116% and 99.6% and 98.1%
COc1cccc(OC)c1-c1cc(C(=O)NC2(C(=O)O)C3CC4CC(C3)CC2C4)nn1-c1ccc(C(=O)N(C)CCOCCOCCN(C)C(=O)[C@H](CCCCNC(=O)[C@H](CC(C)C)NC(=O)C2OC2C(=O)O)NC(=O)CN2CCN(CC(=O)[O-])CCN(CC(=O)[O-])CCN(CC(=O)[O-])CC2)cc1C(C)C.[177Lu+3] (mixture of isomers)	HT-29 tumour model		host not given, bone	4 h, tumour-bearing		tracer uptake	0.71 %ID/g
O=C1NC2(CC2)COc2ncc(F)cc2[C@H]2COCCN2c2ccn3ncc1c3n2	Salmonella typhimurium	Ames test	TA98	50 µg/plate, 48 h, together with: without S9		revertant colonies	12 ± 3 revertants/plate
N#C[C@@H]1CC(F)(F)CN1C(=O)CNC(=O)c1ccnc2c(NC(=O)[C@H](CCCCNC(=O)CCOCCOCCOCCOCCOCCOCCNC(=O)CN3CCN(CC(=O)[O-])CCN(CC(=O)[O-])CCN(CC(=O)[O-])CC3)NC(=O)CCCc3ccc(I)cc3)cccc12.[177Lu+3]	U-87 MG tumour model		host not given, muscle	1 h, tumour-bearing		tracer uptake	2.37 %ID/g
COc1cccc(OC)c1-c1cc(C(=O)NC2(C(=O)O)C3CC4CC(C3)CC2C4)nn1-c1ccc(C(=O)N(C)CCCN(C)CCCN(C)C(=O)[C@H](CCCCNC(=O)[C@H](CC(C)C)NC(=O)C2OC2C(=O)O)NC(=O)CN2CCN(CC(=O)[O-])CCN(CC(=O)[O-])CCN(CC(=O)[O-])CC2)cc1C(C)C.[177Lu+3] (mixture of isomers)	HT-29 tumour model		host not given, stomach	72 h, tumour-bearing		tracer uptake	0.081 %ID/g
O=C1C2CC3CC1CC(C(=O)N1CCN(c4ccc([N+](=O)[O-])c5ncccc45)CC1)(C3)C2	Salmonella typhimurium	Ames test	TA1535	0.05 µg/well, with S9	reference: vehicle	revertant fold increase	0.8

A few entries again:
SMILES	target or system	test	system	setting	how to read	measurement	result
N#C[C@@H]1CC(F)(F)CN1C(=O)CNC(=O)c1ccnc2c(NC(=O)[C@H](CCCCNC(=O)CCOCCOCCOCCOCCOCCOCCNC(=O)CN3CCN(CC(=O)[O-])CCN(CC(=O)[O-])CCN(CC(=O)[O-])CC3)NC(=O)CCCc3ccc(I)cc3)cccc12.[177Lu+3]	U-87 MG tumour model		host not given, muscle	1 h, tumour-bearing		tracer uptake	2.37 %ID/g
COc1cccc(OC)c1-c1cc(C(=O)NC2(C(=O)O)C3CC4CC(C3)CC2C4)nn1-c1ccc(C(=O)N(C)CCCN(C)CCCN(C)C(=O)[C@H](CCCCNC(=O)[C@H](CC(C)C)NC(=O)C2OC2C(=O)O)NC(=O)CN2CCN(CC(=O)[O-])CCN(CC(=O)[O-])CCN(CC(=O)[O-])CC2)cc1C(C)C.[177Lu+3] (mixture of isomers)	HT-29 tumour model		host not given, stomach	72 h, tumour-bearing		tracer uptake	0.081 %ID/g
